Results pooled from the literature.
Numbers after ± are the reported error.
OPRD1: Delta-type opioid receptor (OPRD1, Homo sapiens, UniProt P41143)
Chain of UniProt P41143 (whole entry, unmodified, looked up): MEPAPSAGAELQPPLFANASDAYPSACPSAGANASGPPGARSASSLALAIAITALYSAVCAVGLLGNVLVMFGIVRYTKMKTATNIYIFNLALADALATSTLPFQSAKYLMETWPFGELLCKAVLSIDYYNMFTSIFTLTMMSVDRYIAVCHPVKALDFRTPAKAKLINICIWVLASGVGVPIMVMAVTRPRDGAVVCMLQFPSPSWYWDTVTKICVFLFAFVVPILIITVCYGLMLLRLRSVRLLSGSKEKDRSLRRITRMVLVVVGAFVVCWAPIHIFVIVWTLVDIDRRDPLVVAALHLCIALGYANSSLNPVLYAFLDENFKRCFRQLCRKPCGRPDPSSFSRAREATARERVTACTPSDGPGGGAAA

SMILES | target | test | conditions | measurement | value
C[C@@H](Cc1ccsc1)NC(=O)NC[C@H](Cc1ccc(O)cc1)N(C)C | OPRD1 | cell-free assay |  | Ki | 540 nM
O=C(O)c1ccc(-c2nc(-c3ccccc3Cl)c3sccn23)cc1 | OPRD1 | binding, 8-point dose-response |  | IC50 | ~5 µM
O=C(Cc1ccc(Cl)c(Cl)c1)N1CCNC2COCC(N3CCCC3)C21 (stereo not drawn) | OPRD1 | ligand displacement, radioligand | cell membranes | Ki | > 10000 nM
CCN(CC)C(=O)c1ccc(C(c2cccc(O)c2)N2CC(C)N(Cc3ccccc3)CC2C)cc1 (stereo not drawn) | OPRD1 (Homo sapiens, UniProt P41143, Y308A) |  |  | Ki | 1.09 ± 0.3 nM
Cc1cc(O)cc(C)c1[C@H](O)CC(=O)N[C@@H]1CSSC[C@H](C(N)=O)NC(=O)[C@H](Cc2ccc([N+](=O)[O-])cc2)NC(=O)CNC1=O | OPRD1 | cell-free assay, radioligand |  | Ki | 26300 nM
Cc1cc(O)cc(C)c1C[C@H](N)C(=O)N[C@H](CCCNC(=N)N)C(=O)N[C@@H](Cc1ccccc1)C(=O)N(C)CC(=O)N(C)Cc1cc(C(F)(F)F)cc(C(F)(F)F)c1 | OPRD1 (Homo sapiens, UniProt P41143, G73V) |  |  | Ki | 5.46 ± 0.69 nM
CC12CCC3C(CCC4CC(O)CCC43C)C1CCC2C#N (stereo not drawn) | OPRD1 | antagonist |  | IC50 | 4.25 µM
CN1CCC23c4c5ccc(O)c4CC2C(O)C=CC3C1C5 (racemic) | OPRD1 | binding, radioligand competition |  | EC50 | 1510 nM
Oc1cccc(CCN(CCc2ccccc2)CC2CCCC2)c1 | OPRD1 | β-arrestin recruitment, antagonist |  | IC50 | 3.1 µM

Repeated from above:
SMILES | target | test | conditions | measurement | value
O=C(Cc1ccc(Cl)c(Cl)c1)N1CCNC2COCC(N3CCCC3)C21 (stereo not drawn) | OPRD1 | ligand displacement, radioligand | cell membranes | Ki | > 10000 nM
